Measured values of several laboratories.
Every numbered part comes from another study and shows a few of its results, in no order.

Study 1 — method: RNA Bind-n-Seq; molecule type: RNA; medium: in vitro; concentration: 100 nM; reference: input RNA pool; reading: higher = stronger binding
Target: RING finger protein unkempt homolog, zinc fingers 1-6, SBP tag (UNK, Homo sapiens, UniProt Q9C0B0, residues 30-357)
Chain of UniProt Q9C0B0 (30-357, looked up): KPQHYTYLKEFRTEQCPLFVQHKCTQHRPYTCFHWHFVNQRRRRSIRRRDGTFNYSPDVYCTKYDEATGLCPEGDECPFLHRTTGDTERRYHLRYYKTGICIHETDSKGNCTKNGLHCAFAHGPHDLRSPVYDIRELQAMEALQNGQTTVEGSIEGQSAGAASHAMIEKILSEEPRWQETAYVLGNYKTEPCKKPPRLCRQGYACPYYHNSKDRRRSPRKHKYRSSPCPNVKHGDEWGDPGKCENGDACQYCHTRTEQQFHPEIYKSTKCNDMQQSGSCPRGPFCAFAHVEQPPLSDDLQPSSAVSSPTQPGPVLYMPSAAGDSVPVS
Notes: RNA with constant flanks, vertebrate orthologous sites, ends assumed
The bound/input enrichment of `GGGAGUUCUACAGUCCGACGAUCUAUAUUUAAAAUGUGUUGUUCUAUUUAAAGAUCUCAUUCUGAGUUCCUAUUUCAUUAAAGUAGCUUUCAUUUCUGUUACUGCAGUUAUGAAUAAAUAGAAGGUUUAUGCCAGUAGACACUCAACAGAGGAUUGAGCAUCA` is reported as 0.607 ratio.
`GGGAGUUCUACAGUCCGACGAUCUGGGCAUCCUCUCUGGGGAGCUGCUGGCCGCUUAGCGUUGUUUGACUUUUGACCUUGACAUAGUAGAUAGGCUUGUGGUUUUUUUAAUUUAAAGAUAUUAAGACUUAAUUCACUAAAAUUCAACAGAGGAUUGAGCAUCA` gave a bound/input enrichment of 0.71 ratio.
With `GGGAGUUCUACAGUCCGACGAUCUUACAGUCAUUGAUGGACUCUAUUUUUUUAUUAUUACUUGGACCUUGGUCGUUUUUAUACUAGCAAAAUGUCUUGUUUUAAUUUGUGUUUUUUGGCGGGGAGGGAGUGAACUUGCUGAUUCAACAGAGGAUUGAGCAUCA` the bound/input enrichment was 3.35 ratio.
For `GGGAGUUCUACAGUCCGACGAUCUAGGUCAUGACCCAUAUAGAUUAGCCCAGGAUCCCUACAGGUUAGGUCAUGACCCUUACAGGUUGGCUAGCUCCUGAUCCUUAUAGAAUGUCACCCAGGCCAUACAGGAUAGCACCCAGGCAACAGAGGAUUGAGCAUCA`, the bound/input enrichment was 0.453 ratio.
For `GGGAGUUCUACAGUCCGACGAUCGAUUUGGACCUUGGAGCUGAACCAGGGAGCUAGUGAAAGUAAAGCAGACUUGUAAAGUUAUAGCUAUAUGCAGCUGCACAACACAGUUCUACCACUAGCAGCUGUGUUAAAGUAUAUAAACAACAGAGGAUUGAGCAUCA`, the bound/input enrichment was 0.38 ratio.
The bound/input enrichment of `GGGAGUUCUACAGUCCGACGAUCCCGCAUUAGCACCCUGCCAGCCCAGCAACCUCUCAGUGCACAGCUUCAAAUAGUAAGGUCUAGCUAGAUUUUUAUUUAAAAUAUGAAAAACUGCUUUUCCCAAGACGUUUUUUAAAGGAACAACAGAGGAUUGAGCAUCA` is reported as 0.784 ratio.

Study 2 — effect on: enzyme activity; action: inhibitor; concentration: 20 µM
Target: Replicase polyprotein 1ab, main protease (rep, Severe acute respiratory syndrome coronavirus 2, UniProt P0DTD1)
`Oc1c(I)cc(I)c(O)c1I` gave an inhibition of -18.8%.
The inhibition of `CC[C@H](CO)Nc1nc(NCc2ccc(-c3ccccn3)cc2)c2ncn(C(C)C)c2n1` is reported as 1.59%.
`O=c1[nH]nc(Sc2ncc([N+](=O)[O-])s2)n1-c1ccc2c(c1)OCCO2` gave an inhibition of 21.2%.

Study 3 — effect on: enzyme activity; action: inhibitor; concentration: 20 µM
Target: Replicase polyprotein 1ab, polymerase (rep, Severe acute respiratory syndrome coronavirus 2, UniProt P0DTD1)
For `CCCCN(CCCC)CCC(O)c1cc2c(Cl)cc(Cl)cc2c2cc(C(F)(F)F)ccc12` (centres unmarked), the inhibition was 8.47%.
For `C[C@@H](O[C@H]1OCCN(Cc2n[nH]nc2CN(C)C)[C@H]1c1ccc(F)cc1)c1cc(C(F)(F)F)cc(C(F)(F)F)c1`, the inhibition was 1.55%.
For `CC1=C(CCC(=O)O)c2cc3[nH]c(cc4nc(cc5[nH]c(cc1n2)c(C)c5C(C)O)C(C)=C4C(C)O)c(C)c3CCC(=O)O` (centres unmarked), the inhibition was 99.5%.
For `Cc1ccc(C(=O)c2cc(O)c(O)c([N+](=O)[O-])c2)cc1`, the inhibition was 63%.
For `CCCCN(Cc1ccc(C(=O)NO)cc1)C(=O)Nc1ccccc1`, the inhibition was -9%.
`CCOC(=O)c1cnc2c(cnn2CC)c1NN=C(C)C` gave an inhibition of 1.35%.
With `CC(C)[C@@H]1C(=O)N(S(C)(=O)=O)[C@@H]2CCN(C(=O)/C=C/CN3CCCCC3)[C@H]21` the inhibition was -1.06%.
With `CCC(=O)O[C@@H](O[P@](=O)(CCCCc1ccccc1)CC(=O)N1C[C@H](C2CCCCC2)C[C@H]1C(=O)O)C(C)C` the inhibition was 9.35%.
`Cc1cn([C@H]2O[C@@H](CO)[C@H](O)[C@H]2F)c(=O)[nH]c1=O` gave an inhibition of -3.11%.
With `O=S(=O)(O)NC1CCCCC1` the inhibition was -3.44%.
`CCN(CC)CCNC(=O)COc1ccc(OC)cc1` has an inhibition of 2.81%.
For `O=c1ccc2cc3ccoc3cc2o1`, the inhibition was -0.31%.
`O=C1OC(OC(=O)c2cccnc2Nc2cccc(C(F)(F)F)c2)c2ccccc21` (centres unmarked) has an inhibition of -0.76%.
`COc1cc(N)c(Cl)cc1C(=O)OCCCN1CCCCC1` has an inhibition of 2.43%.
With `Cc1nc(-c2cn3c(n2)-c2ccc(-c4cnn(C(C)(C)C(N)=O)c4)cc2OCC3)n(C(C)C)n1` the inhibition was 5.73%.
For `Cc1ccccc1N1CCN(S(=O)(=O)C[C@]23CC[C@H](C[C@@H]2NC(=O)[C@@H](N)CCS(C)(=O)=O)C3(C)C)CC1`, the inhibition was 1.76%.
For `CN(C)CC[C@@]1(c2ccc(Cl)cc2)Cc2ccccc2C(=O)O1` (racemic), the inhibition was 1.73%.
`Nc1[nH]nc2nc3ccccc3nc12` gave an inhibition of -9.54%.

Study 4 — cell line: HEK-293T/ACE2; concentration: concentration not given; time: 16 (unit not given); reference: vehicle
For `N=C1CCCN1Cc1[nH]c(=O)[nH]c(=O)c1Cl`, the viability was 102%.
`Cc1ccc(C(=O)c2cc(O)c(O)c([N+](=O)[O-])c2)cc1` has a viability of 80.3%.
The viability of `O=C(O[C@H]1C[N+]2(CCCOc3ccccc3)CCC1CC2)C(O)(c1cccs1)c1cccs1` is reported as 101%.

Study 5 — method: competition protein-binding microarray; molecule type: double-stranded DNA, one strand shown; medium: in vitro; concentration: 2 µM; together with: Cbf1 competitor, 0.05 µM; reading: higher = stronger binding
Target: Phosphate system positive regulatory protein PHO4, full length, GST-tagged (PHO4, Saccharomyces cerevisiae, UniProt P07270, residues 1-312)
Chain of UniProt P07270 (whole entry, looked up): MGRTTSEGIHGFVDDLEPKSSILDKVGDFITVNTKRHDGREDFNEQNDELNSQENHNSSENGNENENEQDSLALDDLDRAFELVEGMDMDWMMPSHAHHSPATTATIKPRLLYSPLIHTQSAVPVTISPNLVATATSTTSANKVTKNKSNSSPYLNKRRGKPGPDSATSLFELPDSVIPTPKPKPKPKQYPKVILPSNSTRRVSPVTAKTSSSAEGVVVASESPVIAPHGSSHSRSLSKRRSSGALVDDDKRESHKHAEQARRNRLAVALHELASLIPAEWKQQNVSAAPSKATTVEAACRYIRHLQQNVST
Notes: whole 60-bp probe, lowest competitor level
For `TCTTGCTGATTCTGCATCGTGGTGAACAGACGGTTTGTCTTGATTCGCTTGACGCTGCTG`, the fluorescence intensity was 10800 a.u.
`CGTCCTAGTGATTGCCCAGTGGGTGCCATGAGGAAGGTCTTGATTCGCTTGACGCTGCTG` gave a fluorescence intensity of 6250 a.u.
With `CTTCTGTAAATTTGATGCGTGGGTGGACGCGCCCCGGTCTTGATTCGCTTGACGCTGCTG` the fluorescence intensity was 9440 a.u.
The fluorescence intensity of `GTATTTTGTAAACAGCACGTGATGGACAGGGCGCAGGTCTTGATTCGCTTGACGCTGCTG` is reported as 17500 a.u.
`CTAACGAAGGTTTGTCACGTGACTTACAAGCCAAGTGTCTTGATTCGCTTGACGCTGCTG` gave a fluorescence intensity of 13900 a.u.
`CGATGTGTTTACCATCACGGGAATCAGAAATATGTTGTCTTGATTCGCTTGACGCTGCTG` has a fluorescence intensity of 4840 a.u.
`TAGTCTTTGTCTAGCTTCGTGCTTTTTAGCAAAAGCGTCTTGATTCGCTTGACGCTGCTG` gave a fluorescence intensity of 4800 a.u.
With `AAAGCGGTAATTTGCGAAGTGGGTGCAGATATCTATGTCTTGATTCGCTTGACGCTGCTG` the fluorescence intensity was 4020 a.u.

Repeated from above (study 3):
`CCN(CC)CCNC(=O)COc1ccc(OC)cc1` has an inhibition of 2.81%.
For `O=c1ccc2cc3ccoc3cc2o1`, the inhibition was -0.31%.
`O=C1OC(OC(=O)c2cccnc2Nc2cccc(C(F)(F)F)c2)c2ccccc21` (centres unmarked) has an inhibition of -0.76%.
`COc1cc(N)c(Cl)cc1C(=O)OCCCN1CCCCC1` has an inhibition of 2.43%.
With `Cc1nc(-c2cn3c(n2)-c2ccc(-c4cnn(C(C)(C)C(N)=O)c4)cc2OCC3)n(C(C)C)n1` the inhibition was 5.73%.
